Assay results gathered from unrelated publications.
Each line is one published result; not all experiments were run side by side.

| SMILES | organism | test | test system | setting | MIC |
| --- | --- | --- | --- | --- | --- |
| CCN1CCN(C(=O)N[C@@H](C(=O)N[C@@H]2C(=O)N3[C@@H]2SC(C)(C)[C@@H]3C(=O)O)c2ccccc2)C(=O)C1=O | Escherichia coli | broth microdilution | Keio mutant JW2142-1 | – | 3.12 µg/mL |
| CC(=O)N1CCN(c2ccc(OCC3COC(Cn4ccnc4)(c4ccc(Cl)cc4Cl)O3)cc2)CC1 (stereo not drawn) | Candida albicans | – | alveolar fluid clinical isolate | 48 h, 30 °C | > 64 µM |
| CN1CC(O)=C(C(=O)NC(C(=O)NC2C(=O)N3C2SC(C)(C)C3C(=O)O)c2ccccc2)C1=O (stereo not drawn) | Escherichia coli | broth microdilution | isolate IU 356 A, KPC-3, VIM-1, TEM | no clavulanic acid | > 200 µg/mL |
| CC(C)C[C@H](NC(=O)[C@@H](NC(=O)[C@H](CCCNC(=N)N)NC(=O)[C@H](CCC(N)=O)NC(=O)[C@H](Cc1ccccc1)NC(=O)[C@H](Cc1ccc(O)cc1)NC(=O)[C@H](CC(N)=O)NC(=O)[C@H](Cc1c[nH]c2ccccc12)NC(=O)[C@@H](NC(=O)[C@H](CCCNC(=N)N)NC(=O)[C@H](CCCCN)NC(=O)[C@@H](N)Cc1ccccc1)C(C)C)C(C)C)C(=O)N[C@H](C(=O)N[C@@H](CCCCN)C(=O)N[C@@H](CCCCN)C(N)=O)C(C)C | Listeria monocytogenes | broth dilution | KCTC 13064 | – | 50 µM |
| CC1(C)SC2C(NC(=O)C(NC(=O)C3=C(O)CN(c4ccccc4)C3=O)c3ccccc3)C(=O)N2C1C(=O)O (stereo not drawn) | Escherichia coli | broth microdilution | Keio mutant JW5086-3 | 18 h, ferrienterobactin permease gene | 100 µg/mL |
| C[C@H](NC(=O)[C@H](CCCNC(=N)N)NC(=O)[C@H](Cc1c[nH]c2ccccc12)NC(=O)[C@H](CCCNC(=N)N)NC(=O)[C@H](Cc1c[nH]c2ccccc12)NC(=O)[C@H](Cc1c[nH]c2ccccc12)NC(=O)[C@H](Cc1c[nH]c2ccccc12)NC(=O)[C@H](CCCNC(=N)N)NC(=O)[C@H](Cc1c[nH]c2ccccc12)NC(=O)[C@H](CCCNC(=N)N)NC(=O)CN)C(N)=O | Candida albicans | broth microdilution | CGMCC 2.209, RPMI 1640-MOPS | 48 h, 30 °C, with: ZnCl2 8 µM | 8 µM |
| CC[C@H](C)[C@H](N)C(=O)N[C@@H](CCCNC(=N)N)C(=O)N[C@H](C(=O)N[C@@H](Cc1c[nH]c2ccccc12)C(=O)N[C@@H](CCCCN)C(=O)N[C@@H](CCCCN)C(=O)N[C@@H](Cc1ccccc1)C(=O)N[C@H](C(=O)N[C@@H](CCCNC(=N)N)C(=O)N[C@@H](CCCCN)C(=O)N[C@@H](CCSC)C(=O)N[C@@H](CCCCN)C(=O)N[C@@H](C)C(=O)N[C@H](C(=O)N[C@@H](Cc1ccc(O)cc1)C(=O)N[C@@H](Cc1c[nH]cn1)C(N)=O)[C@@H](C)CC)C(C)C)C(C)C | Listeria monocytogenes | broth dilution | KCTC 13064 | – | 100 µM |
| N=C(N)NCCC[C@H](NC(=O)[C@H](Cc1c[nH]c2ccccc12)NC(=O)[C@H](CCCNC(=N)N)NC(=O)[C@H](Cc1c[nH]c2ccccc12)NC(=O)[C@H](Cc1c[nH]c2ccccc12)NC(=O)[C@H](Cc1c[nH]c2ccccc12)NC(=O)[C@H](CCCNC(=N)N)NC(=O)[C@H](Cc1c[nH]c2ccccc12)NC(=O)[C@@H](N)CCCNC(=N)N)C(=O)N[C@@H](Cc1ccccc1)C(N)=O | Candida albicans | broth microdilution | CGMCC 2.209, RPMI 1640-MOPS | 48 h, 30 °C, with: KCl 4.5 mM | 16 µM |
| CC1(C)SC2C(NC(=O)C(NC(=O)C3=C(O)CNC3=O)c3ccccc3)C(=O)N2C1C(=O)O (stereo not drawn) | Escherichia coli | broth microdilution | ATCC 35218, low-level TEM-1 | no clavulanic acid | > 200 µg/mL |
| Cc1ncc([N+](=O)[O-])n1CCO | Fusobacterium nucleatum | – | – | – | 0.06 to 0.25 µg/mL |
| CC(C)C[C@H](NC(=O)[C@H](CCCNC(=N)N)NC(=O)[C@H](Cc1c[nH]c2ccccc12)NC(=O)[C@H](CCCNC(=N)N)NC(=O)[C@H](Cc1c[nH]c2ccccc12)NC(=O)[C@H](Cc1c[nH]c2ccccc12)NC(=O)[C@H](Cc1c[nH]c2ccccc12)NC(=O)[C@H](CCCNC(=N)N)NC(=O)[C@H](Cc1c[nH]c2ccccc12)NC(=O)[C@@H](N)CCCNC(=N)N)C(N)=O | Candida albicans | broth microdilution | SP3903, RPMI 1640-MOPS | 48 h, 30 °C | 8 µM |
| CC1NC(=O)C(C(=O)NC(C(=O)NC2C(=O)N3C2SC(C)(C)C3C(=O)O)c2ccccc2)=C1O (stereo not drawn) | Escherichia coli | broth microdilution | ATCC 35218, low-level TEM-1 | no clavulanic acid | > 200 µg/mL |
| CC(C)C[C@H](NC(=O)[C@H](CCCNC(=N)N)NC(=O)[C@H](Cc1c[nH]c2ccccc12)NC(=O)[C@H](CCCNC(=N)N)NC(=O)[C@H](Cc1c[nH]c2ccccc12)NC(=O)[C@H](Cc1c[nH]c2ccccc12)NC(=O)[C@H](Cc1c[nH]c2ccccc12)NC(=O)[C@H](CCCNC(=N)N)NC(=O)[C@H](Cc1c[nH]c2ccccc12)NC(=O)[C@H](CCCNC(=N)N)NC(=O)CN)C(N)=O | Candida albicans | broth microdilution | CGMCC 2.209, RPMI 1640-MOPS | 48 h, 30 °C | 32 µM |
| CC[C@H](C)[C@H](NC(=O)[C@H](CCCCN)NC(=O)[C@H](CCCCN)NC(=O)[C@H](Cc1ccccc1)NC(=O)[C@@H](NC(=O)[C@@H](NC(=O)[C@H](CCCNC(=N)N)NC(=O)[C@H](Cc1ccccc1)NC(=O)[C@@H](NC(=O)[C@H](CCCCN)NC(=O)[C@H](CCCCN)NC(=O)[C@@H](N)CCSC)[C@@H](C)CC)C(C)C)[C@@H](C)CC)C(=O)N[C@@H](CC(C)C)C(=O)N[C@@H](CCCCN)C(=O)N[C@@H](CCCNC(=N)N)C(=O)N[C@@H](CC(C)C)C(=O)N[C@H](C(=O)N[C@H](C(=O)O)C(C)C)[C@@H](C)CC | Staphylococcus aureus | broth microdilution | GU-1 MRSA | 5% fetal bovine serum | 8 µg/mL |
| CC(C)C[C@@H](NC(=O)[C@H](C)NC(=O)CNC(=O)[C@@H](NC=O)C(C)C)C(=O)N[C@@H](C)C(=O)N[C@@H](C(=O)N[C@H](C(=O)N[C@@H](C(=O)N[C@@H](Cc1c[nH]c2ccccc12)C(=O)N[C@H](CC(C)C)C(=O)N[C@@H](Cc1ccc2[nH]ccc2c1)C(=O)N[C@H](CC(C)C)C(=O)N[C@@H](Cc1c[nH]c2ccccc12)C(=O)N[C@@H](C(=O)N[C@@H](Cc1c[nH]c2ccccc12)C(=O)NCCO)C(C)C)[C@H](C)O)C(C)C)C(C)C | Listeria monocytogenes | broth microdilution | 10403S | – | 1.1 µM |
| N=C(N)NCCC[C@H](NC(=O)CCCCCNC(=O)[C@H](CCCNC(=N)N)NC(=O)[C@H](CCCNC(=N)N)NC(=O)CCCCCNC(=O)[C@H](CCCNC(=N)N)NC(=O)[C@H](CCCNC(=N)N)NC(=O)CCCCCNC(=O)[C@H](CCCNC(=N)N)NC(=O)[C@H](CCCNC(=N)N)NC(=O)CCCCCNC(=O)[C@@H](N)CCCNC(=N)N)C(=O)NCCCCCC(=O)NCCC(=O)O | Escherichia coli | – | ATCC 25922 | 1 h, 37 °C, after 90% human serum | > 192 µM |
| CC[C@H](C)[C@H](NC(=O)[C@@H](NC(=O)[C@H](Cc1ccccc1)NC(=O)CNC(=O)[C@H](CCC(N)=O)NC(=O)[C@H](CCCCN)NC(=O)[C@H](C)N)C(C)C)C(=O)N[C@@H](Cc1ccc(O)cc1)C(=O)N[C@@H](CCCNC(=N)N)C(=O)N[C@H](C(=O)N[C@@H](CCCNC(=N)N)C(=O)N[C@H](C(=O)N[C@@H](CCCNC(=N)N)C(=O)N[C@@H](CCCNC(=N)N)C(=O)NCC(=O)N[C@@H](CC(N)=O)C(=O)N[C@@H](CCCNC(=N)N)C(=O)N[C@@H](CCCCN)C(N)=O)C(C)C)C(C)C | Listeria monocytogenes | broth dilution | KCTC 13064 | – | > 100 µM |
| C[C@@H](O)[C@H]1C(=O)N2C(C(=O)O)=C(SCCN=CN)C[C@H]12 | Klebsiella pneumoniae | – | KPC-2 parental strain K1(4578) | – | 64 µg/mL |
| CC1(C)SC2C(NC(=O)C(NC(=O)C3=C(O)C(Cc4ccsc4)NC3=O)c3ccccc3)C(=O)N2C1C(=O)O (stereo not drawn) | Escherichia coli | broth microdilution | Keio mutant JW0146-2 | 18 h, ferric hydroxamate uptake gene | 12.5 µg/mL |
| N=C(N)NCCC[C@H](NC(=O)CN)C(=O)N[C@@H](Cc1c[nH]c2ccccc12)C(=O)N[C@@H](CCCNC(=N)N)C(=O)N[C@@H](Cc1c[nH]c2ccccc12)C(=O)N[C@@H](Cc1c[nH]c2ccccc12)C(=O)N[C@@H](Cc1c[nH]c2ccccc12)C(=O)N[C@@H](CCCNC(=N)N)C(=O)N[C@@H](Cc1c[nH]c2ccccc12)C(=O)N[C@@H](CCCNC(=N)N)C(=O)N[C@@H](Cc1c[nH]c2ccccc12)C(N)=O | Candida albicans | broth microdilution | alveolar fluid isolate, RPMI 1640-MOPS | 48 h, 30 °C | 8 µM |
| CCCCCCCCCC(=O)N[C@@H](Cc1c[nH]c2ccccc12)C(=O)N[C@H](CC(N)=O)C(=O)N[C@@H](CC(=O)O)C(=O)N[C@@H]1C(=O)NCC(=O)N[C@@H](CCCN)C(=O)N[C@@H](CC(=O)O)C(=O)N[C@H](C)C(=O)N[C@@H](CC(=O)O)C(=O)NCC(=O)N[C@H](CO)C(=O)N[C@@H]([C@H](C)CC(=O)O)C(=O)N[C@@H](CC(=O)c2ccccc2N)C(=O)O[C@@H]1C | Staphylococcus aureus | broth microdilution | VISA LIM strain 2, Mueller-Hinton broth, Mg2+ 10 mg/L | 16 h, with: Ca2+ 0 mM | > 128 µg/mL |

For quick reference, copied from above:
| SMILES | organism | test | test system | setting | MIC |
| --- | --- | --- | --- | --- | --- |
| CC(C)C[C@H](NC(=O)[C@H](CCCNC(=N)N)NC(=O)[C@H](Cc1c[nH]c2ccccc12)NC(=O)[C@H](CCCNC(=N)N)NC(=O)[C@H](Cc1c[nH]c2ccccc12)NC(=O)[C@H](Cc1c[nH]c2ccccc12)NC(=O)[C@H](Cc1c[nH]c2ccccc12)NC(=O)[C@H](CCCNC(=N)N)NC(=O)[C@H](Cc1c[nH]c2ccccc12)NC(=O)[C@H](CCCNC(=N)N)NC(=O)CN)C(N)=O | Candida albicans | broth microdilution | CGMCC 2.209, RPMI 1640-MOPS | 48 h, 30 °C | 32 µM |
| CC[C@H](C)[C@H](NC(=O)[C@H](CCCCN)NC(=O)[C@H](CCCCN)NC(=O)[C@H](Cc1ccccc1)NC(=O)[C@@H](NC(=O)[C@@H](NC(=O)[C@H](CCCNC(=N)N)NC(=O)[C@H](Cc1ccccc1)NC(=O)[C@@H](NC(=O)[C@H](CCCCN)NC(=O)[C@H](CCCCN)NC(=O)[C@@H](N)CCSC)[C@@H](C)CC)C(C)C)[C@@H](C)CC)C(=O)N[C@@H](CC(C)C)C(=O)N[C@@H](CCCCN)C(=O)N[C@@H](CCCNC(=N)N)C(=O)N[C@@H](CC(C)C)C(=O)N[C@H](C(=O)N[C@H](C(=O)O)C(C)C)[C@@H](C)CC | Staphylococcus aureus | broth microdilution | GU-1 MRSA | 5% fetal bovine serum | 8 µg/mL |
| CC(C)C[C@@H](NC(=O)[C@H](C)NC(=O)CNC(=O)[C@@H](NC=O)C(C)C)C(=O)N[C@@H](C)C(=O)N[C@@H](C(=O)N[C@H](C(=O)N[C@@H](C(=O)N[C@@H](Cc1c[nH]c2ccccc12)C(=O)N[C@H](CC(C)C)C(=O)N[C@@H](Cc1ccc2[nH]ccc2c1)C(=O)N[C@H](CC(C)C)C(=O)N[C@@H](Cc1c[nH]c2ccccc12)C(=O)N[C@@H](C(=O)N[C@@H](Cc1c[nH]c2ccccc12)C(=O)NCCO)C(C)C)[C@H](C)O)C(C)C)C(C)C | Listeria monocytogenes | broth microdilution | 10403S | – | 1.1 µM |
